Measured values pooled from the literature.
Compare with care: the assays were run in different laboratories. ± marks the error that the study gave.

Substance | test | system | setting | scale | endpoint | value
CC[C@H](C)[C@H](NC(=O)[C@H](CCC(N)=O)NC(=O)[C@H](Cc1c[nH]cn1)NC(=O)[C@H](C)NC(=O)[C@H](CC(C)C)NC(=O)[C@H](CCCCN)NC(=O)[C@H](CCC(N)=O)NC(=O)[C@@H](NC(=O)[C@@H](NC(=O)[C@@H]1CSSC[C@H](NC(=O)CNC(=O)[C@H](Cc2ccccc2)NC(=O)[C@H](CO)NC(=O)[C@H](CCCNC(=N)N)NC(=O)[C@H](CC(C)C)NC(=O)CNC(=O)[C@H](CCC(N)=O)NC(=O)[C@H](Cc2ccccc2)NC(=O)[C@H](CC(N)=O)NC(=O)[C@H](CC(N)=O)NC(=O)[C@H](CCSC)NC(=O)[C@H](CO)NC(=O)[C@H](CCC(N)=O)NC(=O)[C@H](CCCNC(=N)N)NC(=O)[C@@H](N)Cc2ccc(O)cc2)C(=O)N[C@@H](CCCNC(=N)N)C(=O)N[C@@H](Cc2ccccc2)C(=O)NCC(=O)N[C@@H]([C@@H](C)O)C(=O)N1)[C@@H](C)O)C(C)C)C(=O)N[C@@H](Cc1ccc(O)cc1)C(=O)N[C@@H](CCC(N)=O)C(=O)N[C@@H](Cc1ccccc1)C(=O)N[C@H](C(=O)N[C@@H](CC(=O)O)C(=O)N[C@@H](CCCCN)C(=O)N[C@@H](CC(=O)O)C(=O)N[C@@H](CCCCN)C(=O)N[C@@H](CC(=O)O)C(=O)N[C@@H](CC(N)=O)C(=O)N[C@H](C(=O)N[C@@H](C)C(=O)N1CCC[C@H]1C(=O)N[C@@H](CCCNC(=N)N)C(=O)N[C@@H](CO)C(=O)N[C@@H](CCCCN)C(=O)N[C@H](C(=O)N[C@@H](CO)C(=O)N1CCC[C@H]1C(=O)N[C@@H](CCC(N)=O)C(=O)NCC(=O)N[C@@H](Cc1ccc(O)cc1)C(N)=O)[C@@H](C)CC)C(C)C)[C@@H](C)O |  | patients, biologic-resistant Crohn's disease | intravenous infusion, 10 ng/kg/min, 24 weeks, unit not given, with: biologic | baseline: baseline | change in CDAI | -82 ± 56
Cn1c(=O)c2[nH]cnc2n(C)c1=O | agonist | Rhinella marina urinary bladder |  | baseline: deamino-oxytocin | maximal response fraction | 0.78
CN(C)C(=O)N[C@H]1CC[C@H](CCN2CCN(c3cccc(Cl)c3Cl)CC2)CC1 | open field | Sprague-Dawley rat, ouabain mania model | intraperitoneal, 0.06 mg/kg, 1 h pretreatment, 30 min observation, with: ouabain i.c.v. |  | locomotor activity | 64.2 ± 3.88 squares crossed
Cc1ccc(NC(=O)c2ccc(CN3CCN(C)CC3)cc2)cc1Nc1nccc(-c2cncc(-c3oncc3C)c2)n1 |  | mild-to-moderate Parkinson's disease patients | oral, 100 mg once daily, pre-dose baseline, on anti-Parkinson medication | direction not given | PGI-S score | 2 ± 0.7
PACAP | item: BDNF | APP V717I transgenic mouse | intranasal, dose not given, 3 months | baseline: vehicle | mRNA level | 154 ± 15.7%
C[C@H]1C[C@H]2CSC(N)=N[C@@]2(c2nc(NC(=O)c3ccc(OC(F)F)cn3)cs2)CO1 | item: CSF Aβ1–42 | healthy adults | 125 mg once daily, 14 days, day 15 | baseline: placebo-adjusted baseline | change from baseline | -84.8%
SIYNFEKL | flow cytometry, item: CD44hi CD8+ T cells | peptide, OT-I CD8+ T cells, mouse | dose not given, primed 5 days, restimulated 100 ng/mL OVA257, with: no TGF-β1 |  | TNF-α only cells | 0%
COc1ccc2c(c1)c(CC(=O)O)c(C)n2C(=O)c1ccc(Cl)cc1 | multiplex bead immunoassay, item: IL-15 | CD-1 mice, serum | ip, 20 mg/kg, three-injection regimen, with: LPS 3 mg/kg |  | cytokine level | 21.1 ± 12 pg/mL
SIIVFEKL | flow cytometry, item: CD44hi CD8+ T cells | peptide, OT-I CD8+ T cells, mouse | dose not given, primed 5 days, TGF-β1 from day 2 onward, with: 20 ng/mL TGF-β1 |  | cytokine-negative cells | 49.5%
CCCCC/C=C\C/C=C\CCCCCCCC(=O)OCC1(C)COC1 |  | mouse | lingual, dose not given, with: linoleic or oleic acid | baseline: fatty acid alone | chorda tympani nerve response | increased
O=C(O)Cc1ccccc1Nc1c(Cl)cccc1Cl |  | rat carrageenan paw oedema | 10 mg/kg, 3 h |  | paw volume increase | 0.23 ± 0.02 mm

Repeated from above:
Substance | test | system | setting | scale | endpoint | value
C[C@H]1C[C@H]2CSC(N)=N[C@@]2(c2nc(NC(=O)c3ccc(OC(F)F)cn3)cs2)CO1 | item: CSF Aβ1–42 | healthy adults | 125 mg once daily, 14 days, day 15 | baseline: placebo-adjusted baseline | change from baseline | -84.8%
Cn1c(=O)c2[nH]cnc2n(C)c1=O | agonist | Rhinella marina urinary bladder |  | baseline: deamino-oxytocin | maximal response fraction | 0.78
